Assay results collected from several papers.
Compare with care: the assays were run in different laboratories. “And” joins repeats or separate records; there may be more than shown. ± gives the spread as reported.

SMILES | target or system | assay | system | conditions | how to read | measurement | value
COc1ccc2c(c1)c(CC(=O)[Se]CC(=O)Nc1cccc(C(F)(F)F)c1)c(C)n2C(=O)c1ccc(Cl)cc1 | NCI60 leukemia subpanel | cell growth | – | 10 µM, 48 h, one-dose | – | mean growth percent | -70.3%
N#C[C@@H]1CC(F)(F)CN1C(=O)CNC(=O)c1ccnc2ccc(OCCCN3CCN(C(=O)CCc4ccc(O)c(CN5CCN6CC(=O)[O][Al-]([18F])([O]C(=O)C5)[O]c5ccc(CCC(=O)N7CCN(CCCOc8ccc9nccc(C(=O)NCC(=O)N%10CC(F)(F)C[C@H]%10C#N)c9c8)CC7)cc5C6)c4)CC3)cc12 (stereo partly shown) | HT1080 cells expressing human FAP | – | – | 30 min, 37 °C | – | internalized fraction | 78.5 ± 4.4%
Cc1ccc2nc(C)n(/N=C/c3ccc(C(=O)O)cc3)c(=O)c2c1 | LoVo | cell growth or viability, LDH | – | 200 µg/mL, 24 h | – | viability | 32.5%
Cc1ccc(-n2cc(CSc3nc4ccccc4n3Cc3cn(-c4ccc(C)cc4)nn3)nn2)cc1 | Caco-2 | MTT | – | 500 ppm | – | cytotoxicity | 90.3%
CC(C)(C)c1ccc([C@H](O)C[C@H](CO)NC(=O)CCCCCOc2ccc3ccccc3c2)cc1 | HeLa | CERT activity, HPLC-MS/MS lipidomics, refers to: ceramide 20 | – | 1 µM, 24 h, not cell-number normalised | – | ceramide level | 100 pmol/sample and 159 pmol/sample and 128 pmol/sample
CC(=O)N[C@@H](CC(=O)O)C(=O)N[C@@H](CCCC(=O)O)C(=O)N[C@@H](CC(C)C)C(=O)N[C@@H](CC(=O)O)C(=O)COC(=O)c1c(C)cccc1C | THP-1 cells, LPS-primed | pyroptosis, LDH release | – | 25 µM, LPS 1 µg/mL, 4 h, with: nigericin 5 µM, 2 h | – | cell lysis | 30.2%
COc1ccc(C(=O)NC23CCCC(C)(CCC4C2CC4(C)C)C3)cc1 (stereo not shown) | HT-29 | cell growth or viability, CCK-8 | – | 300 µM | – | inhibition | 98.6%
COc1ccc(CNC[C@@](O)(COCc2ccc(F)cc2)[C@@H]2CC[C@@H](C)C[C@H]2OCc2ccc(F)cc2)cc1 | A2780 | cell growth or viability, MTT | – | 30 µM, 72 h | – | inhibition | 95.8%
O=S(=O)(N[C@H]1CCO[C@@H](C2c3ccc(F)cc3CCc3cc(F)ccc32)C1)c1ccc(OC(F)(F)F)cc1 | D341 | immunoblot | – | concentration not given | – | CCR2 protein level | decreased
CC(C)c1ccc(N(C)c2ccc3c(c2)OCC[C@H]3CNc2cnccc2C(=O)O)cc1 | TE-6 | cell growth or viability, ATP luminescence | – | 7 days | – | IC50 | 6.68 nM
O=S(=O)(N[C@H]1CCO[C@@H](C2c3ccccc3CCc3ccccc32)C1)c1ccc(OC(F)(F)F)cc1 | D341 | CellTiter | – | concentration not given, 72 h | – | cell proliferation | decreased
CNS(=O)(=O)Nc1nccc(Cc2c(C)c3ccc(Oc4ncccc4F)cc3oc2=O)c1F | NCI-H3255 | cell viability | – | 7 days | – | IC50 | > 1000 nM
CCC(=CCc1c(O)cc2c(c1O)C(=O)CC(c1cccc(OC)c1O)O2)CC (stereo not shown) | HeLa | cell growth or viability, MTT | – | 100 µM, 48 h | – | inhibition | 100%
CCc1ccc2oc(=O)cc(Cn3ccnc3)c2c1 | COS-7 (untransfected) | – | – | 500 µM, unit not given | baseline: 3 µM ionomycin | calcium mobilisation signal | 13.5 ± 2.58
O=C(NCc1cccc(Cl)c1)c1ccc([C@H]2[C@@H](F)[C@@H](F)C[C@@H](F)[C@H]2F)cc1 | – | liver microsome stability | human liver microsomes | 1 µM, without NADPH | – | hepatic clearance | 3.9 mL/min/kg
CCC(=CCc1c(O)cc2c(c1O)C(=O)CC(c1ccc(OC)cc1O)O2)CC (stereo not shown) | HeLa | cell growth or viability, MTT | – | 3.125 µM, 48 h | – | inhibition | 7.3%
C[C@@H]1CC[C@@H]([C@](O)(CNCc2ccc(F)cc2)COCc2ccccc2)[C@H](OCc2ccccc2)C1 | A2780 | cell growth or viability, MTT | – | 10 µM, 72 h | – | inhibition | 33.7%
CCN(CC)CC(=O)Nc1cccc(-n2cc(-c3ccc4ccc(-c5cn(-c6cccc(NC(=O)CN(CC)CC)c6)nn5)cc4c3)nn2)c1 | RCC4 | PCR angiogenesis array, refers to: SERPINF1 | – | 5 x IC50, 2 h, normoxia | baseline: untreated | fold regulation | -1.15
N#C[C@@H]1CCCN1C(=O)CNC(=O)c1ccnc2ccc(OCCCN3CCN(C(=O)CCc4ccc5c(c4)CN4CCN6CC(=O)[O][68Ga-]([O]C(=O)C4)([O]5)[O]c4ccc(CCC(=O)N5CCN(CCCOc7ccc8nccc(C(=O)NCC(=O)N9CCC[C@H]9C#N)c8c7)CC5)cc4C6)CC3)cc12 | HT1080 cells expressing human FAP | – | – | 60 min, 37 °C | – | internalized fraction | 81.6 ± 3%
Cc1ncsc1-c1ccc(C(C)NC(=O)C2CC(O)CN2C(=O)C(NC(=O)CCCCCCCCCCN2CCCC(Nc3ncc(Cl)c(Nc4ccccc4S(=O)(=O)C(C)C)n3)C2)C(C)(C)C)cc1 (stereo not shown) | 22Rv1 | RNA-seq, refers to: RHPN1-AS1 | – | concentration not given | baseline: DMSO | log2 fold change | -2.39
CSC(=NN=C(C)c1ccc(S(=O)(=O)N2CCC(C)CC2)cc1)N(C)C | MCF7 | annexin V/PI | – | concentration not given, 72 h, at IC50 | – | early apoptotic cells | 6.32%
CC12CCCC(NS(=O)(=O)c3ccc(CCN)cc3)(C1)C1CC(C)(C)C1CC2 (stereo not shown) | HT-29 | cell growth or viability, CCK-8 | – | 50 µM | – | inhibition | 98.7%
Cc1cc(Cl)cc(-c2ccnc3cc(CN4C(=O)C5C(C4=O)C5(C)C)sc23)c1C[C@@H]1CNCCO1 (stereo partly shown) | CHP-212 resistant cells (pooled) | PI flow cytometry | – | 0.1 µM, 24 h | – | cells in G1 phase | 70.5% and 67.6% and 71.7%

SMILES | target or system | assay | system | conditions | how to read | measurement | value
CN1CCCNC(=O)c2cccc(c2)C(=O)NCCCN(C)CCCNc2cccc3c2C(=O)c2cccc(c2C3=O)NCCC1 | SAS | RNA-Seq, refers to: SEC31A mRNA | – | 1 µM, 6 h | baseline: untreated cells | log2 fold change | -0.7
CC12CCCC(n3cc(C(=O)N4CCC(N)CC4)nn3)(C1)C1CC(C)(C)C1CC2 (stereo not shown) | HT-29 | cell growth or viability, CCK-8 | – | 10 µM | – | inhibition | 76.6%
COc1ccc(COC[C@](O)(CNCc2ccccc2)[C@@H]2CC[C@@H](C)C[C@H]2OCc2ccc(OC)cc2)cc1 | A2780 | cell growth or viability, MTT | – | 10 µM, 72 h | – | inhibition | 100%
CC(=O)NCCCN(C)CCCNc1cccc2c1C(=O)c1cccc(NCCCN(C)CCCNC(C)=O)c1C2=O | SAS | RNA-Seq, refers to: IGSF10 mRNA | – | 1 µM, 6 h | baseline: untreated cells | log2 fold change | 4.29
Cn1ncc2cc(-c3cncc(Cl)c3N3CCC4(CCNC4=O)CC3)ccc21 | LS174T | gene expression, microarray, refers to: DUSP6 mRNA | – | concentration not given, 24 h | baseline: untreated cells | log2 fold change | 2.1
CC12CCCC(NS(=O)(=O)c3ccccc3N)(C1)C1CC(C)(C)C1CC2 (stereo not shown) | HT-29 | cell growth or viability, CCK-8 | – | 50 µM | – | inhibition | 100%
CCCc1cc(=O)oc2cc(O)c(O)cc12 | COS-7 (untransfected) | – | – | 500 µM, unit not given | baseline: 3 µM ionomycin | calcium mobilisation signal | 0.87 ± 1.22
O=C(CC(F)(F)F)Nc1ccc(C2CCCCC2)cc1 | – | liver microsome stability | human liver microsomes | 1 µM, without NADPH | – | hepatic clearance | 11 mL/min/kg
COc1ccc(C2CC(=O)c3c(cc(O)c(CC=C(C)C)c3O)O2)cc1 (stereo not shown) | HeLa | cell growth or viability, MTT | – | 25 µM, 48 h | – | inhibition | 28.1%
COc1ccc(NC(=O)c2ccc3[nH]c(-c4ccc(N(C)C)cc4)nc3c2)cn1 | HCEC-hTERT | IncuCyte | – | concentration not given, 24 h | – | dead cell to confluence ratio | 13.8 and 54.1 and 2.13
CC(=O)N[C@@H](CC(=O)O)C(=O)N[C@@H](CCC(=O)O)C(=O)N[C@H](C(=O)N[C@@H](CC(=O)O)C(=O)COC(=O)c1c(C)cccc1C)C(C)C | THP-1 cells, LPS-primed | pyroptosis, LDH release | – | 25 µM, LPS 1 µg/mL, 4 h, with: nigericin 5 µM, 2 h | – | cell lysis | 25.4%
CC(C)(C)c1cc(-c2ccc3cccnc3n2)nc(-c2ccc3cccnc3n2)c1.COc1ccncc1.[Cl-].[Cl-].[Ru+2].c1ccc2cc3nc4c5cccnc5c5ncccc5c4nc3cc2c1 | SK-MEL-28 | – | – | light 633 nm | baseline: dark EC50 over light EC50 | phototherapeutic index | 143
C=CCc1c(O)cc2c(c1O)C(=O)CC(c1ccc(O)cc1)O2 (stereo not shown) | MCF7 | cytotoxicity, MTT | – | 64.04 µM, 48 h | – | growth inhibition | 16.5%
[BH3-][P+]1(c2ccccc2)CCCCC1 | HaCaT | trypan blue | – | IC50, 72 h | baseline: untreated | reduction of cell number | 10 to 20%
O=S(=O)(Nc1ccc(OC(F)(F)F)cc1)N1CCCC(C2c3ccccc3CCc3ccccc32)C1 (stereo not shown) | D425 | Transwell | – | 1.5 µM, 24 h | – | cell migration | decreased
CN(C12CCCC(C)(CCC3C1CC3(C)C)C2)S(=O)(=O)c1ccccc1 (stereo not shown) | HT-29 | cell growth or viability, CCK-8 | – | 50 µM | – | inhibition | 47%
COc1ccc(CSC2C3=C(CCCC3=O)Oc3ccc(Br)cc32)cc1 (stereo not shown) | 3T3-L1 mature adipocytes | lipolysis, Oil Red O staining | – | IC20 | – | mean lipid content | 0.723 OD492
CCN(C(=O)c1cc(F)ccc1Oc1nncnc1N1CCC2(C1)CN([C@H](CCCN(C)CCOC)C(C)C)C2)C(C)C | 22Rv1 | cell growth or viability | – | 7 days | – | GI50 | > 10000 nM
CCCCNc1ncc2c(/C=C/C(=O)N3CCC(OC)CC3)nn(Cc3cccc(C(F)(F)F)c3)c2n1 | FLO-1 | cell growth or viability, resazurin | – | 5 days | – | EC50 | > 30000 nM
CCC(=CCc1c(O)cc2c(c1O)C(=O)CC(c1c(O)cccc1OC)O2)CC (stereo not shown) | HeLa | cell growth or viability, MTT | – | 12.5 µM, 48 h | – | inhibition | 15.8%
CC(=O)N[C@@H](CC(=O)O)C(=O)N[C@@H](CCC(=O)O)C(=O)N[C@@H](CC(C)C)C(=O)N[C@@H](CC(=O)O)C(=O)COC(=O)c1c(C)cccc1C | THP-1 cells, LPS-primed | pyroptosis, LDH release | – | 25 µM, LPS 1 µg/mL, 4 h, with: nigericin 5 µM, 2 h | – | cell lysis | 62.2%
CCC(=CCc1c(O)cc2c(c1O)C(=O)CC(c1cc(OC)ccc1O)O2)CC (stereo not shown) | HeLa | cell growth or viability, MTT | – | 25 µM, 48 h | – | inhibition | 17.9%
CC(Br)C(=O)NC12CCCC(C)(CCC3C1CC3(C)C)C2 (stereo not shown) | HT-29 | cell growth or viability, CCK-8 | – | 300 µM | – | inhibition | 96.6%

A few entries again:
SMILES | target or system | assay | system | conditions | how to read | measurement | value
CN1CCCNC(=O)c2cccc(c2)C(=O)NCCCN(C)CCCNc2cccc3c2C(=O)c2cccc(c2C3=O)NCCC1 | SAS | RNA-Seq, refers to: SEC31A mRNA | – | 1 µM, 6 h | baseline: untreated cells | log2 fold change | -0.7
CSC(=NN=C(C)c1ccc(S(=O)(=O)N2CCC(C)CC2)cc1)N(C)C | MCF7 | annexin V/PI | – | concentration not given, 72 h, at IC50 | – | early apoptotic cells | 6.32%
CC(Br)C(=O)NC12CCCC(C)(CCC3C1CC3(C)C)C2 (stereo not shown) | HT-29 | cell growth or viability, CCK-8 | – | 300 µM | – | inhibition | 96.6%
Cc1ncsc1-c1ccc(C(C)NC(=O)C2CC(O)CN2C(=O)C(NC(=O)CCCCCCCCCCN2CCCC(Nc3ncc(Cl)c(Nc4ccccc4S(=O)(=O)C(C)C)n3)C2)C(C)(C)C)cc1 (stereo not shown) | 22Rv1 | RNA-seq, refers to: RHPN1-AS1 | – | concentration not given | baseline: DMSO | log2 fold change | -2.39
Cc1cc(Cl)cc(-c2ccnc3cc(CN4C(=O)C5C(C4=O)C5(C)C)sc23)c1C[C@@H]1CNCCO1 (stereo partly shown) | CHP-212 resistant cells (pooled) | PI flow cytometry | – | 0.1 µM, 24 h | – | cells in G1 phase | 70.5% and 67.6% and 71.7%
CC(C)(C)c1cc(-c2ccc3cccnc3n2)nc(-c2ccc3cccnc3n2)c1.COc1ccncc1.[Cl-].[Cl-].[Ru+2].c1ccc2cc3nc4c5cccnc5c5ncccc5c4nc3cc2c1 | SK-MEL-28 | – | – | light 633 nm | baseline: dark EC50 over light EC50 | phototherapeutic index | 143
